# Measurements from different studies.
# Numbered parts are unrelated; each lists some results of a single study.
# Sequence of UniProt Q5S007 (whole entry, unmodified, looked up): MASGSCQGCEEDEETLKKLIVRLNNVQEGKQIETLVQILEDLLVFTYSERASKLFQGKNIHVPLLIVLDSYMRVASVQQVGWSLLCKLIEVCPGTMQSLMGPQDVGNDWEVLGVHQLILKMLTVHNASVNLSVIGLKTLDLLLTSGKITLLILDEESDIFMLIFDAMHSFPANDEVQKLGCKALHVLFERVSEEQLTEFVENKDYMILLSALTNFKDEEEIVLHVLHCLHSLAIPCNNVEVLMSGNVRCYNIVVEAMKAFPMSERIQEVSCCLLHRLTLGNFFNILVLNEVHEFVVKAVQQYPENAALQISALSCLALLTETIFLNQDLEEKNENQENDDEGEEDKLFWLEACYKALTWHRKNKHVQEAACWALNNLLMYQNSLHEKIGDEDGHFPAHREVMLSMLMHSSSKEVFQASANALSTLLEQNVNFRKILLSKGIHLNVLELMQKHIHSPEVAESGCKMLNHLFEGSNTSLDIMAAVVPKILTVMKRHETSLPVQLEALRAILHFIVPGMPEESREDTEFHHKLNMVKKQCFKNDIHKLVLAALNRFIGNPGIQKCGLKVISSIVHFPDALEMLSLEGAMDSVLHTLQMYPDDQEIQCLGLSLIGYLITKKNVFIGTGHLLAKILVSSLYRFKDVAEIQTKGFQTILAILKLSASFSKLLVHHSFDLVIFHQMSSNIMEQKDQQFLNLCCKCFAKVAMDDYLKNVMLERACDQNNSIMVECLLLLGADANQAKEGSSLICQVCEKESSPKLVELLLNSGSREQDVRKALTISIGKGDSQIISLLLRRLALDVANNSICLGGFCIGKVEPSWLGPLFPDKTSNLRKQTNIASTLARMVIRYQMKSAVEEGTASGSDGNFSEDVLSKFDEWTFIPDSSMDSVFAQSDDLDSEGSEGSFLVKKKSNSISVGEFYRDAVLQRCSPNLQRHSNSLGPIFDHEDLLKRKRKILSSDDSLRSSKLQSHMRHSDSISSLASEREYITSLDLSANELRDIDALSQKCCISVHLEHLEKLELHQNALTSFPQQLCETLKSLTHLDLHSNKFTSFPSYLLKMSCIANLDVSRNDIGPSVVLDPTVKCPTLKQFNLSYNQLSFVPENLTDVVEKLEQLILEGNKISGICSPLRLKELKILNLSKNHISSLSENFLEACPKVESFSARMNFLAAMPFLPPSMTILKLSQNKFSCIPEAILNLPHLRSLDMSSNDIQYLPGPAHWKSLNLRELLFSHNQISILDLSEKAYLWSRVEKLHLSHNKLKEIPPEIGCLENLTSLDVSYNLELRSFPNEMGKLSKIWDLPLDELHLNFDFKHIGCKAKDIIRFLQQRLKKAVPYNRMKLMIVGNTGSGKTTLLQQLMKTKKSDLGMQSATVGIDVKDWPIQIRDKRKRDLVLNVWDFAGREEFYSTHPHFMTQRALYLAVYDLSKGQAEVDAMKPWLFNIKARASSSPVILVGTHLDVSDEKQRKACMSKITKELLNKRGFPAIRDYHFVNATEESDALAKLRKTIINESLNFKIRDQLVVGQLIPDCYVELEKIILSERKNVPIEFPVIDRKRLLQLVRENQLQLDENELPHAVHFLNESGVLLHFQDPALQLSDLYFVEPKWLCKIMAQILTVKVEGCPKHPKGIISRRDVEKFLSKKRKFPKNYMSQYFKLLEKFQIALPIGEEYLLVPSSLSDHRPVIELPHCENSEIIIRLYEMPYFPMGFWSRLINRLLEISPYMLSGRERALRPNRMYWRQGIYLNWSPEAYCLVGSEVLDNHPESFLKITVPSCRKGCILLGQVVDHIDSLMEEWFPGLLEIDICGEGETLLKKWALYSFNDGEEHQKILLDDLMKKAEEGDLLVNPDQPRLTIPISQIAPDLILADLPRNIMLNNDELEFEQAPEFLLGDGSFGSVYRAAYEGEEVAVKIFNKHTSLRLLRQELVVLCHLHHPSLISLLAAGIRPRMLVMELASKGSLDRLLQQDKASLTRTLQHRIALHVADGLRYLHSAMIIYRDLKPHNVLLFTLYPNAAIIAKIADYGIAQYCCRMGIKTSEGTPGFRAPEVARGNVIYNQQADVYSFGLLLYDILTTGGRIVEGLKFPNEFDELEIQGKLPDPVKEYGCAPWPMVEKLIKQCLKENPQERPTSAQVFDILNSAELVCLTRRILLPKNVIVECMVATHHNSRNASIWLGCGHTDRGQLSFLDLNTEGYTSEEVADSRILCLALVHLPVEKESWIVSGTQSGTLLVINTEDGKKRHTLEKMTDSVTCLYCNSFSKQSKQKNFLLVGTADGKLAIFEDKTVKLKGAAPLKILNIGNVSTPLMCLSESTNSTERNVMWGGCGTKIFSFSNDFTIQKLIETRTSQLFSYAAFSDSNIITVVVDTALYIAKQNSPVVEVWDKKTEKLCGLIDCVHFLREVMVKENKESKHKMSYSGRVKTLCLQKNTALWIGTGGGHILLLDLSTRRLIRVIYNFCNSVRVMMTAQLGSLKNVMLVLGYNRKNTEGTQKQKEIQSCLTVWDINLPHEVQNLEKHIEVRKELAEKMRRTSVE
# Sequence of UniProt P78368 (whole entry, looked up): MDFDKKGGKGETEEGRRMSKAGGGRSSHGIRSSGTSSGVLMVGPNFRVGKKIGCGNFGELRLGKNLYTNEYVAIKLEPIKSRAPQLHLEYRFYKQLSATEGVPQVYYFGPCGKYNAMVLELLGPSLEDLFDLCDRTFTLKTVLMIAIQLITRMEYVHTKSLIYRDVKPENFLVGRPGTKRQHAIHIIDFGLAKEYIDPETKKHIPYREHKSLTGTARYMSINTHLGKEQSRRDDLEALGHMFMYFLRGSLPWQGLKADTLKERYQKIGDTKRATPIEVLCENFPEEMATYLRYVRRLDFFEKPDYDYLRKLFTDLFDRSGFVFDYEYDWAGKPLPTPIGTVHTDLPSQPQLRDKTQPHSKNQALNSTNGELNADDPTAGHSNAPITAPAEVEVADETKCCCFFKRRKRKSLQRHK
# Sequence of UniProt Q9HC98 (whole entry, looked up): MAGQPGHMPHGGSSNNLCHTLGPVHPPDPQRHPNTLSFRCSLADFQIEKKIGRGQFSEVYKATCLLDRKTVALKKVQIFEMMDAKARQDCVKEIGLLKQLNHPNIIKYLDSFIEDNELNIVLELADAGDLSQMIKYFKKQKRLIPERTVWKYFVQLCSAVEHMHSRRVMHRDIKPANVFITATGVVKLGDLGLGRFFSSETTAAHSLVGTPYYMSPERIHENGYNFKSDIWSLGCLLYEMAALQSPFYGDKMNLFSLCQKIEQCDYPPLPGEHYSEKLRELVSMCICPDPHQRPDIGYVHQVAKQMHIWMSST
# Sequence of UniProt Q15391 (whole entry, looked up): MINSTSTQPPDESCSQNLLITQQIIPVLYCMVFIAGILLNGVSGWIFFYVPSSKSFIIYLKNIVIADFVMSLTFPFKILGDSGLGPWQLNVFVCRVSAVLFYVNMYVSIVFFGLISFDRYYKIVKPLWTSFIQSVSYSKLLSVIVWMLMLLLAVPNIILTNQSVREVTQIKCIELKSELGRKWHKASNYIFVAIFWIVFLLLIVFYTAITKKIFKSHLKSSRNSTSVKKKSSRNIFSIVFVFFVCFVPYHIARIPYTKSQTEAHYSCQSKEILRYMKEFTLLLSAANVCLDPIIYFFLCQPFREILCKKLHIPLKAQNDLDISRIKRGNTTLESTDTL
# Sequence of UniProt Q15349 (whole entry, looked up): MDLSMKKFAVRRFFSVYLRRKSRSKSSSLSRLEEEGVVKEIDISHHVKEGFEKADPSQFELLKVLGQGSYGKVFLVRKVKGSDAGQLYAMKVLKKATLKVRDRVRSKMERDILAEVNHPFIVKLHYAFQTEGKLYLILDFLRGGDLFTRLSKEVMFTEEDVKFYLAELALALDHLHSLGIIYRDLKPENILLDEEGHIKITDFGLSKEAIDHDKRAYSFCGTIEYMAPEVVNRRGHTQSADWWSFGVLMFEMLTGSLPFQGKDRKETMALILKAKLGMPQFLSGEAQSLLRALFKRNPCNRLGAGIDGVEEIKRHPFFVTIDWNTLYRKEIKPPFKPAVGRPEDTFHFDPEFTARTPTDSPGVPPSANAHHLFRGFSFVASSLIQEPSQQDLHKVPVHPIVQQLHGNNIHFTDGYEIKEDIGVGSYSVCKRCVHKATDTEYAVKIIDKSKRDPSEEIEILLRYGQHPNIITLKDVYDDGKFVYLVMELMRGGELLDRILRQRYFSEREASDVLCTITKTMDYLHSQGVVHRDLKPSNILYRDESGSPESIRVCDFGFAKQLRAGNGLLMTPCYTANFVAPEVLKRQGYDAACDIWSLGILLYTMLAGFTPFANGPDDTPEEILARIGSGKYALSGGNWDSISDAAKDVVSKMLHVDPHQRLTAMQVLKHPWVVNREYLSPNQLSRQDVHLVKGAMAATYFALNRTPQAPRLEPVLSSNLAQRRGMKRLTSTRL
# Sequence of UniProt P42685 (whole entry, looked up): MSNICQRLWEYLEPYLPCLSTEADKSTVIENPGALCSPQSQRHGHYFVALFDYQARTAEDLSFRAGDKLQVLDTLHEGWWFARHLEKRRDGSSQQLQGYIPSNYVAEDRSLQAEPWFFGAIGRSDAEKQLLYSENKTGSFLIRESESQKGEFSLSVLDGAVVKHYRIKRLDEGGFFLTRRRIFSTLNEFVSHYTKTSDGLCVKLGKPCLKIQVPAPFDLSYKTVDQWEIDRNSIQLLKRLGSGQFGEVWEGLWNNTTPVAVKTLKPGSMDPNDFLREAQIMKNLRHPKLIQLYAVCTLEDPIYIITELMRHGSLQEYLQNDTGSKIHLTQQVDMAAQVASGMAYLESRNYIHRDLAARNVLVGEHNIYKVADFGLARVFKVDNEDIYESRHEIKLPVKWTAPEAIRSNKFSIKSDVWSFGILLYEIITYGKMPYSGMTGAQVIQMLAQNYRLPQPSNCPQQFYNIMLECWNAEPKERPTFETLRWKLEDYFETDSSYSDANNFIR

# Study 1
# Compound: CC(C)n1cnc(-c2ccc(F)cc2)c1-c1ncc(C(=O)Nc2ccc(N3CCN(C)CC3)cc2)[nH]1
# Method: Phase 2a trial
# Species: idiopathic pulmonary fibrosis patients
assay,conditions,patients with adverse events
refers to: blood creatine phosphokinase increased,"30 mg once daily, grade 5 maximum intensity",0%
refers to: neutrophil count increased,"30 mg once daily, grade 2 maximum intensity",0%
refers to: tri-iodothyronine increased,"60 mg once daily, grade 2 maximum intensity",0%
refers to: muscular weakness,"60 mg once daily, grade 1 maximum intensity",0%
refers to: blood alkaline phosphatase increased,"30 mg once daily, grade 2 maximum intensity",0%

# Study 2
# Target: Diamine acetyltransferase 1 (Homo sapiens, UniProt P21673)
# Mode: inhibitor
# Tested at: 10 µM
# Relative to: control
# Residues (P21673 1-171): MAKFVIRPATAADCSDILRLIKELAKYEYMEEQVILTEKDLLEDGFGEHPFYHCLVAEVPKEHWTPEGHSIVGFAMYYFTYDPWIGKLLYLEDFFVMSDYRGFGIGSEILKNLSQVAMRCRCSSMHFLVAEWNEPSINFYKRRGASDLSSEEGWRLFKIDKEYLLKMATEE
SMILES,remaining activity [%]
C[C@@H]1CC[C@]2(C(=O)O)CC[C@]3(C)C(=CC[C@@H]4[C@@]5(C)C[C@@H](O)[C@H](O)C(C)(C)[C@@H]5CC[C@]43C)[C@@H]2[C@]1(C)O,103
CCCCCCCCCCCCCCCCCCCCCCCCCCCCO,101
CCCCCCCCCCCCCCCCCCCCC(=O)O,95.9
C=CC(C)(O)CCC=C(C)C (stereo not shown),88.1

# Study 3
# SMILES: N=C(N)NC(=O)c1cnn(-c2cccc3ncccc23)c1C1CC1
# Effect on: β-arrestin recruitment
# Mode: agonist
# Method: PRESTO-Tango
# Tested at: 10 µM
# Relative to: untreated
target,fold over basal
"EDNRA (Homo sapiens, UniProt P25101)",1.31
"P2Y purinoceptor 14 (P2RY14, Homo sapiens, UniProt Q15391)",1.11
"Adhesion G protein-coupled receptor A3 (ADGRA3, Homo sapiens, UniProt Q8IWK6)",0.98
"PTGFR (Homo sapiens, UniProt P43088)",0.96

# Study 4
# SMILES: C[C@@H](N)[C@H]1CC[C@H](C(=O)Nc2ccncc2)CC1
# Effect on: enzyme activity
# Mode: inhibitor
# Tested at: 0.5 µM
# Relative to: control
target,remaining activity
"ABL2 (Homo sapiens, UniProt P42684)",94.6%
"ULK2 (Homo sapiens, UniProt Q8IYT8)",102%
"FGFR3 (Homo sapiens, UniProt P22607)",101%
"RPS6KA2 (Homo sapiens, UniProt Q15349)",71.5%
"NEK6 (Homo sapiens, UniProt Q9HC98)",94.7%
"ACVR1B (Homo sapiens, UniProt P36896)",99.6%
"NEK1 (Homo sapiens, UniProt Q96PY6)",109%
"MAP3K5 (Homo sapiens, UniProt Q99683)",105%
"WEE1 (Homo sapiens, UniProt P30291)",111%
"MAPK3 (Homo sapiens, UniProt P27361)",98%
"FRK (Homo sapiens, UniProt P42685)",95.9%
"GRK7 (Homo sapiens, UniProt Q8WTQ7)",88.1%
"FGFR1 (Homo sapiens, UniProt P11362)",92.1%
"CSNK1G2 (Homo sapiens, UniProt P78368)",99.5%
"EPHA3 (Homo sapiens, UniProt P29320)",95.5%
"MST1R (Homo sapiens, UniProt Q04912)",94.6%
"MAP3K14 (Homo sapiens, UniProt Q99558)",109%
"CSNK1G3 (Homo sapiens, UniProt Q9Y6M4)",98.5%
"ULK3 (Homo sapiens, UniProt Q6PHR2)",101%
"GSK3B (Homo sapiens, UniProt P49841)",102%

# Study 5
# Cell line: HaCaT
# Tested at: 100 µM
# Time: 36 h
SMILES,viability
CC(=O)[C@@]1(O)CC[C@H]2[C@@H]3C[C@H](C)C4=CC(=O)C=C[C@]4(C)[C@@]3(F)[C@@H](O)C[C@@]21C,87.2%
COC(=O)Nc1nc2ccc(C(=O)c3ccccc3)cc2[nH]1,14.7%
O=C(O[C@H]1C[N+]2(CCCOc3ccccc3)CCC1CC2)C(O)(c1cccs1)c1cccs1,93%
Cc1[nH]c(=O)c(C#N)cc1-c1ccncc1,75.9%
O=C(O)c1ccccc1Nc1cccc(C(F)(F)F)c1,73.2%
OCCOc1ccc(/C(=C(/CCCl)c2ccccc2)c2ccccc2)cc1,6.57%

# Study 6
# SMILES: CC(C)(O)c1cncc(-c2nc3ccc(F)cc3n2C2CC2)c1
# Effect on: cell-free assay
# Method: competition with immobilised ligand
# Tested at: 1 µM
target,remaining binding
"EPHB3 (Homo sapiens, UniProt P54753)",100%
"CDK9 (Homo sapiens, UniProt P50750)",100%
"EPHB6 (Homo sapiens, UniProt O15197)",100%
"LRRK2 (Homo sapiens, UniProt Q5S007, G2019S)",100%

# A few entries again (study 2):
SMILES,remaining activity [%]
C=CC(C)(O)CCC=C(C)C (stereo not shown),88.1
C[C@@H]1CC[C@]2(C(=O)O)CC[C@]3(C)C(=CC[C@@H]4[C@@]5(C)C[C@@H](O)[C@H](O)C(C)(C)[C@@H]5CC[C@]43C)[C@@H]2[C@]1(C)O,103
CCCCCCCCCCCCCCCCCCCCC(=O)O,95.9
CCCCCCCCCCCCCCCCCCCCCCCCCCCCO,101
